Results from different studies.
A part holds a random share of what one study measured.

Set 1 — method: universal PBM; molecule type: double-stranded DNA, one strand shown; sample: in vitro; concentration: not given; direction: higher = stronger binding
Target: Sal-like protein 4, full length isoform B (SALL4, Homo sapiens, UniProt Q9UJQ4-2, residues 1-616)
Notes: 8-mer, flanks averaged, mean of replicates
`GAAACCAC` has an E-score of -0.144.
With `AGGTCTCA` the E-score was -0.0798.
`ACCCGTTA` gave an E-score of -0.00227.
`GTCGGAAC` gave an E-score of -0.208.
With `ACTCCGAC` the E-score was -0.235.
With `GAATAACC` the E-score was 0.104.

Set 2 — method: protein-binding microarray; molecule type: double-stranded DNA, one strand shown; sample: in vitro; concentration: 2540 nM top; notes: 60-bp whole probe; with: salmon DNA 0.4 mg/ml; baseline: random background probes; direction: higher = stronger binding; shared flanks, not repeated: GCCTAGCAC … GTCTTGATTCGCTTGACGCTGCTG
Target: Interferon regulatory factor 3, full length, phosphomimetic (IRF3, Homo sapiens, UniProt Q14653, residues 1-427, S386D/S396D/S398D/S402D/T404D/S405D)
Sequence of UniProt Q14653 (whole entry, unmodified, looked up): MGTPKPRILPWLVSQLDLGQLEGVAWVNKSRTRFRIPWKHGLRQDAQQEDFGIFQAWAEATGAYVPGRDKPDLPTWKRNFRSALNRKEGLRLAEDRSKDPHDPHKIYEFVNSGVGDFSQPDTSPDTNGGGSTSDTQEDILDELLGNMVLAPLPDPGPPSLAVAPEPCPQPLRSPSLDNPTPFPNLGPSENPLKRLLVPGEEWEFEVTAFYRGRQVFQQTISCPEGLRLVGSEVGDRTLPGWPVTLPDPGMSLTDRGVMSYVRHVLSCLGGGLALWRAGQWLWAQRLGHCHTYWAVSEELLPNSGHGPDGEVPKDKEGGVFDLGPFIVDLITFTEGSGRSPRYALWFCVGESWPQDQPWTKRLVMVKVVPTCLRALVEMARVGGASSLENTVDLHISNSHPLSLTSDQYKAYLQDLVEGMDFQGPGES
For `CACGGTCTCGGTCTCGGGACGTGCTAG`, “fitted relative affinity” read 1.08 z-score.
Under “fitted relative affinity”, `TTAGGTCTCGGTTTCGGATAGTGCTAG` is recorded as 4.43 z-score.
For `GACGGACTAGGTCTCGGGACGTGCTAG`, “fitted relative affinity” read -0.479 z-score.
For `TTAGATTTCAGTCTCAATTAGTGCTAG`, “fitted relative affinity” read 2.32 z-score.
`ATTTTTTTCTAATTGAAATGGTGCTAG` — result for “fitted relative affinity”: 1.58 z-score.
Under “fitted relative affinity”, `TTAGATATCGGGTATCGAGTAGTGCTA` is recorded as 0.0111 z-score.
For `TTAGGTATCGGGACTGGGTTCGTGCTA`, “fitted relative affinity” read 1.24 z-score.

Set 3 — method: RNA Bind-n-Seq; molecule type: RNA; sample: in vitro; concentration: 365 nM; baseline: no-protein control; direction: higher = stronger binding
Target: RNA binding protein fox-1 homolog 2, RRM domain, GST-SBP tag (RBFOX2, Homo sapiens, UniProt O43251-10, residues 100-194)
Notes: natural RNA segment, single round, ends assumed
Target sequence (chain): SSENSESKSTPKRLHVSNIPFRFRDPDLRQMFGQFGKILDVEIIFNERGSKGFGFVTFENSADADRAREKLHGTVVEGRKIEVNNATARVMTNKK
`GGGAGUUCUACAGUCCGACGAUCCUGAUAUUAUAAGCUUAAAACUAUCUUGAGGGGGAAAUGACUUCUUUUCUCCUUCUGUCCCUUUUCUCAAAAGCAUCUUUCCCCCAAAUGUAUGUCUCUAGGACAUUUUAUGGAAUUCUCGGGUGCCAA`: “RBNS enrichment (R)” 0.553.
Under “RBNS enrichment (R)”, `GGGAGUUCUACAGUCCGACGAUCGGGGACGGGGUCUGUGAGAGUCAAUUCAGGGGAAAGAUACAAGAUUGAUUUGUAAAACCCUUGAAAUGUAGAUUUCUUGUAGAUGUAUCCUUCACGUUGUAAAUAUGUUUUGGAAUUCUCGGGUGCCAA` is recorded as 0.59.
`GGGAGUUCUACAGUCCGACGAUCGGCUUUUUCAUUGAGGGCCUAAAGUAAUCGCGCUAAGAAUAAAGGGAAAACGGCGUCGCCCUCAUUUCAACCCCACUCCUACCCCCUUCCUCAACCCCCAAACAAAACAAUGGAAUUCUCGGGUGCCAA` — result for “RBNS enrichment (R)”: 0.419.
`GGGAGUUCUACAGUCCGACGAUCACUAAUCCUCUUUCAGGACCCUAAAGUUGCAGGUUAGUAGGUCUUCAAGGACAAAUCUGUAAGUUUCUUAUUUCUGUAGUGCAAGUAAAAUUUCACUUUUUGAAACUAUAUGGAAUUCUCGGGUGCCAA`: “RBNS enrichment (R)” 0.446.
Under “RBNS enrichment (R)”, `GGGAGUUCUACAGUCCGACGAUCUUUAUUAUGUAAAGGACUACCCAUGAUAACAUGCCAUAUUAUGUGUUUAUAUUCUAAUGUAACCAUAUACCAUAACUAAAUAAAAGUUUGGCUACUUGCACUAAUCUUCCUGGAAUUCUCGGGUGCCAA` is recorded as 0.715.
`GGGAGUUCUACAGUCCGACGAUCUGUAGUCCAGAACUGGGGAGGCCAGGAGAGCCGUUACUCACUCCAUGGCUCUCAGACCGCGUUCCUCUUUGGCCUUCCUUCCAGCCGAGCCGUCACCAUAAGUAAAUCAAUGGAAUUCUCGGGUGCCAA` — result for “RBNS enrichment (R)”: 0.304.
`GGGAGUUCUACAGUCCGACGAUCUCAGAUGAUGUGGUUUGUACACUUUCUGUAACCACCAGUGUGGACUUGAAGAAGUGUCCUCAGCAUGUGCAGAGUCUACUACCCAGUACCAGUCGUGAGUCUGCAGGCUCUGGAAUUCUCGGGUGCCAA` — result for “RBNS enrichment (R)”: 2.92.

Single results of other studies
For `PhoQ, residues 284 288 289 292 302 303 TLSLKA`, the fold induction was 0.923 (PhoP, residues 12 14 15 18 19 AWHSL (Escherichia coli, UniProt P23836); Sort-seq, measured: YFP reporter; E. coli; PhoQ-PhoP variant library, with: 10 µM Mg2+; baseline: high Mg2+ state, higher = stronger signaling).

Some of these lines once more (set 2):
Under “fitted relative affinity”, `TTAGGTCTCGGTTTCGGATAGTGCTAG` is recorded as 4.43 z-score.
Under “fitted relative affinity”, `TTAGATATCGGGTATCGAGTAGTGCTA` is recorded as 0.0111 z-score.
